Results collected from several papers.
Every numbered part comes from another study and shows a few of its results, in no order.
Chain of UniProt P07333 (whole entry, looked up): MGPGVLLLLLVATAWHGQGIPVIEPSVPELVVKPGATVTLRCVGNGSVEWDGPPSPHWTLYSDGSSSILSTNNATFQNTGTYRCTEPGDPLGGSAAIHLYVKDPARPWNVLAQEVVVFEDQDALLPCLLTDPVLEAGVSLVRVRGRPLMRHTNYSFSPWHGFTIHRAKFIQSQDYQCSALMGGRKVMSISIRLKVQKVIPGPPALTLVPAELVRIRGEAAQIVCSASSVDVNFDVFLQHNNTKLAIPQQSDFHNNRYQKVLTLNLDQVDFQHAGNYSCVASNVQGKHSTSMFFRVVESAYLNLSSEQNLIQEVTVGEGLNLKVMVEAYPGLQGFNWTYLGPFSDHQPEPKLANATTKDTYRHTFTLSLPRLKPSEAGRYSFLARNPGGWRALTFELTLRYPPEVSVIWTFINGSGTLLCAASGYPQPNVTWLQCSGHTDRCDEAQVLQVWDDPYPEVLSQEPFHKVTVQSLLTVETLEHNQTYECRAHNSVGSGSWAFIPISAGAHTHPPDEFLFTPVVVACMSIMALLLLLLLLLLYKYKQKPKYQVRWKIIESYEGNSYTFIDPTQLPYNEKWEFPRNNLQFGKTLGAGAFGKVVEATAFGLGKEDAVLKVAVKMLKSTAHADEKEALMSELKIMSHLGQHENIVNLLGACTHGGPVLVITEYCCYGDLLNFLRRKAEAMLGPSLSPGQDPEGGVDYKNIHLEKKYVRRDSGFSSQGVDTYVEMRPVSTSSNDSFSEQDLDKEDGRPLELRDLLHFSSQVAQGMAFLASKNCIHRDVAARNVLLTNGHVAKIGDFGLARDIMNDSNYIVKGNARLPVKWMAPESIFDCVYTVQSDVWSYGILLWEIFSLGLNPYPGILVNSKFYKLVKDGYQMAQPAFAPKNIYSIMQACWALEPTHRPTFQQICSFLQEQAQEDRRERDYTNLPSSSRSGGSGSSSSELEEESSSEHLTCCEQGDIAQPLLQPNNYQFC
Chain of UniProt P78368 (whole entry, looked up): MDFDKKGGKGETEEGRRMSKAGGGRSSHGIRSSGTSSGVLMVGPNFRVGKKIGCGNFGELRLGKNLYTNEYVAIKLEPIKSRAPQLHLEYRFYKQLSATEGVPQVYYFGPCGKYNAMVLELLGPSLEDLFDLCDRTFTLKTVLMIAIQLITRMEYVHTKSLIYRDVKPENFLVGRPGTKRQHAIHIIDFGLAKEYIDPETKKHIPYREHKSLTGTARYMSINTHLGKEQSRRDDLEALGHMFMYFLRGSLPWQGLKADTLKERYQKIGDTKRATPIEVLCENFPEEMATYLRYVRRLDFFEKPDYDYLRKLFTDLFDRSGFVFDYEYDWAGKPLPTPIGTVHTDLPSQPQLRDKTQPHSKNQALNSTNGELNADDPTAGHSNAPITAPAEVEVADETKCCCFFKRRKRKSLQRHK
Chain of UniProt P11309 (whole entry, looked up): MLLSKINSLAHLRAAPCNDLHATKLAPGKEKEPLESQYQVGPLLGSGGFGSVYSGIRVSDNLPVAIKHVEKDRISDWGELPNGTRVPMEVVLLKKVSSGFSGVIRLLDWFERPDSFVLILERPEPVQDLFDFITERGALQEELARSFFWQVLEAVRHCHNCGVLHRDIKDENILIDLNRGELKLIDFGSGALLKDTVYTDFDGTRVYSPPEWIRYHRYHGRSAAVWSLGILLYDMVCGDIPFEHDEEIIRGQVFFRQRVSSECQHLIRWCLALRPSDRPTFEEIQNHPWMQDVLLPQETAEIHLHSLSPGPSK

Block 1 — observed: enzyme activity; action: inhibitor; concentration: 0.5 µM; relative to: control
Target: Tyrosine-protein kinase ZAP-70 (ZAP70, Homo sapiens, UniProt P43403)
Target sequence (P43403 1-619): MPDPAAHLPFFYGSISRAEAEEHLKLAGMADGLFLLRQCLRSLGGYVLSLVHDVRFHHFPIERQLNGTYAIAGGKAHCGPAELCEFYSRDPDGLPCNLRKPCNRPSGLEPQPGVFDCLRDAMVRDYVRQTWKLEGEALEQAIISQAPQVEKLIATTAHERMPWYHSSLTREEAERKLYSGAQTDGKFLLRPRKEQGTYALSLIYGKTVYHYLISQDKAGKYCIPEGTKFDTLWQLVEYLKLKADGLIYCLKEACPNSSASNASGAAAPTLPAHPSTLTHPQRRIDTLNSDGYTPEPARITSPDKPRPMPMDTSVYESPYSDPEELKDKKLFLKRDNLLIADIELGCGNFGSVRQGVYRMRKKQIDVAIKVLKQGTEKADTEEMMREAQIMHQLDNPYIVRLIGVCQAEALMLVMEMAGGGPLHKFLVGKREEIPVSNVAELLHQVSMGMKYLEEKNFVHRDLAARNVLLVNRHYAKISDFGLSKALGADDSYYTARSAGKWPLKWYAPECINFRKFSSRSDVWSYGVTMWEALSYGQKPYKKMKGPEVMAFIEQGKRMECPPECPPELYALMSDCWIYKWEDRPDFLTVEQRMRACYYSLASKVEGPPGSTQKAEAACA
| Compound | remaining activity [%] |
| --- | --- |
| O=C1NC(=O)C(c2cn(CCCn3ccnc3)c3ccccc23)=C1Nc1ccccc1 | 104 |
| C#Cc1cccc(Nc2ncnc3cc(OCCOC)c(OCCOC)cc23)c1 | 94.4 |
| Cc1ccc(NC(=O)c2ccc(CN3CCN(C)CC3)cc2)cc1Nc1nc(-c2cccnc2)cs1 | 112 |
| Cc1nc(-c2ccccc2)c(-c2ccncc2)o1 | 98.8 |
| Cn1c2ccccc2c2c3c(c4c5ccccc5n(CCC#N)c4c21)CNC3=O | 77.7 |
| Cn1sc(=O)n(Cc2ccccc2)c1=O | 102 |
| CC(C)[C@H](CO)Nc1nc(Nc2cc(N)cc(Cl)c2)c2ncn(C(C)C)c2n1 | 102 |
| O=c1c2ccccc2[nH]c(=S)n1CCN1CCC(=C(c2ccc(F)cc2)c2ccc(F)cc2)CC1 | 98 |
| COc1cc2nccc(Oc3ccc(NC(=S)NC(=O)c4ccccc4C)cc3)c2cc1OC | 97 |
| O=S(=O)(c1cccc2cnccc12)N1CCCNCC1 | 108 |
| Cc1cccc(-c2[nH]c(C(C)(C)C)nc2-c2ccc3c(c2)OCO3)n1 | 106 |
| O=C(CCCc1ccc(-c2ccccc2F)cc1)Nc1ccc(O)cc1 | 99.7 |
| CNC(=O)c1cc(Oc2ccc(NC(=O)Nc3ccc(Cl)c(C(F)(F)F)c3)cc2)ccn1 | 97.8 |
| COc1ccc(CNC(=O)Nc2ncc([N+](=O)[O-])s2)cc1 | 102 |
| N#CC(C#N)=C(N)/C(C#N)=C/c1ccc(O)cc1 | 96 |

Block 2 — technique: protein-binding microarray; molecule type: double-stranded DNA, one strand shown; sample: in vitro; concentration: not given; reading: higher = stronger binding
Target: Cyclic AMP-dependent transcription factor ATF-1 (ATF1, Homo sapiens, UniProt P18846, residues 1-271, full length assumed)
Setting: k-mer, scored over probes, only values ≥0.25
Target sequence (chain): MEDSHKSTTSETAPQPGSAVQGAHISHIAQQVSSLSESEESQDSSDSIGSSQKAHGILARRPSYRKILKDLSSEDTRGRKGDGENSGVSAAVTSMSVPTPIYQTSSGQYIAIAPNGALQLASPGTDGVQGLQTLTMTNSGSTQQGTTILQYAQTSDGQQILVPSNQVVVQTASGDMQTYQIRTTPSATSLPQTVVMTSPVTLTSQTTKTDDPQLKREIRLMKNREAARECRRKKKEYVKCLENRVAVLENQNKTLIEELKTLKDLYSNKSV
| Strand | E-score |
| --- | --- |
| CACATAC | 0.276 |
| CGTCGTC | 0.276 |
| TACGCAA | 0.34 |
| CCCACCC | 0.271 |
| ACGTCAC | 0.498 |
| ACACGTA | 0.407 |
| AGCTTAC | 0.251 |
| GCGTGAC | 0.373 |

Block 3 — host: human; sample: microsomes or S9; concentration: 2 µM; time: 0.5 h
| SMILES | remaining compound [%] |
| --- | --- |
| O=C(N[C@H](c1ccccc1)[C@@H](O)c1ccccc1)c1ccc(F)cc1 | 82 |
| Nc1nc(N2CCN(c3ccccc3Cl)CC2)nc2ccccc12 | 4.27 |
| O=S(=O)(Nc1ccc2[nH]ncc2c1)c1cc(Cl)c(Cl)cc1Cl | > 99 |
| O=C(NC12CC3CC(CC(C3)C1)C2)C1CCN(c2cc(-n3cccc3)ncn2)CC1 | 0.707 |

Block 4 — Compound: CC(C)(O)c1cncc(-c2nc3ccc(F)cc3n2C2CC2)c1; observed: cell-free assay; technique: competition with immobilised ligand; concentration: 1 µM
| target | remaining binding |
| --- | --- |
| Casein kinase I isoform gamma-2 (CSNK1G2, Homo sapiens, UniProt P78368) | 100% |
| Serine/threonine-protein kinase pim-1 (PIM1, Homo sapiens, UniProt P11309) | 92% |
| Macrophage colony-stimulating factor 1 receptor (CSF1R, Homo sapiens, UniProt P07333) | 99% |
